Assay results collected from several papers.
Numbered parts are unrelated; each lists some results of a single study.

Set 1 — method: protein binding microarray; molecule type: double-stranded DNA, one strand shown; medium: in vitro; concentration: not given; baseline: not given; reading: higher = stronger binding
Target: Histone acetyltransferase KAT6A, both winged helices, GST fusion (KAT6A, Homo sapiens, UniProt Q92794, residues 1-181)
Setting: 8-mer, flanks averaged, mean of 2 arrays, mostly near background
Residues (chain): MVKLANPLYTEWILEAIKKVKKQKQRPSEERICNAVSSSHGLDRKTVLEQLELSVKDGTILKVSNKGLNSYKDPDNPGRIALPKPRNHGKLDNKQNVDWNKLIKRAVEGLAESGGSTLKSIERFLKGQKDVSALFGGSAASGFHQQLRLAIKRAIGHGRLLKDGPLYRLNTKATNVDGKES
`AGCCTCCT` has an E-score of -0.063.
`TCACTACA` gave an E-score of -0.0866.
`ACTTACCG` has an E-score of 0.184.
`CCTTGACG` has an E-score of 0.0958.
`ATGCAGAA` has an E-score of -0.0198.
The E-score of `ATGCGACG` is reported as 0.28.
The E-score of `GGGGTCCA` is reported as -0.0626.
`CGCACTGA` gave an E-score of 0.16.
`ATAATCCC` has an E-score of -0.0458.
With `ATGCCCCA` the E-score was -0.277.
With `ACCTTCAG` the E-score was -0.127.
For `AGGTAAAC`, the E-score was -0.0259.
The E-score of `GGGCCACC` is reported as -0.0793.
With `ACCTAGTC` the E-score was -0.0799.

Set 2 — method: universal PBM; molecule type: double-stranded DNA, one strand shown; medium: in vitro; concentration: 600 nM; reading: higher = stronger binding
Target: Sal-like protein 4, full length isoform A (SALL4, Homo sapiens, UniProt Q9UJQ4, residues 1-1053)
UniProt Q9UJQ4, sequence (whole entry, looked up): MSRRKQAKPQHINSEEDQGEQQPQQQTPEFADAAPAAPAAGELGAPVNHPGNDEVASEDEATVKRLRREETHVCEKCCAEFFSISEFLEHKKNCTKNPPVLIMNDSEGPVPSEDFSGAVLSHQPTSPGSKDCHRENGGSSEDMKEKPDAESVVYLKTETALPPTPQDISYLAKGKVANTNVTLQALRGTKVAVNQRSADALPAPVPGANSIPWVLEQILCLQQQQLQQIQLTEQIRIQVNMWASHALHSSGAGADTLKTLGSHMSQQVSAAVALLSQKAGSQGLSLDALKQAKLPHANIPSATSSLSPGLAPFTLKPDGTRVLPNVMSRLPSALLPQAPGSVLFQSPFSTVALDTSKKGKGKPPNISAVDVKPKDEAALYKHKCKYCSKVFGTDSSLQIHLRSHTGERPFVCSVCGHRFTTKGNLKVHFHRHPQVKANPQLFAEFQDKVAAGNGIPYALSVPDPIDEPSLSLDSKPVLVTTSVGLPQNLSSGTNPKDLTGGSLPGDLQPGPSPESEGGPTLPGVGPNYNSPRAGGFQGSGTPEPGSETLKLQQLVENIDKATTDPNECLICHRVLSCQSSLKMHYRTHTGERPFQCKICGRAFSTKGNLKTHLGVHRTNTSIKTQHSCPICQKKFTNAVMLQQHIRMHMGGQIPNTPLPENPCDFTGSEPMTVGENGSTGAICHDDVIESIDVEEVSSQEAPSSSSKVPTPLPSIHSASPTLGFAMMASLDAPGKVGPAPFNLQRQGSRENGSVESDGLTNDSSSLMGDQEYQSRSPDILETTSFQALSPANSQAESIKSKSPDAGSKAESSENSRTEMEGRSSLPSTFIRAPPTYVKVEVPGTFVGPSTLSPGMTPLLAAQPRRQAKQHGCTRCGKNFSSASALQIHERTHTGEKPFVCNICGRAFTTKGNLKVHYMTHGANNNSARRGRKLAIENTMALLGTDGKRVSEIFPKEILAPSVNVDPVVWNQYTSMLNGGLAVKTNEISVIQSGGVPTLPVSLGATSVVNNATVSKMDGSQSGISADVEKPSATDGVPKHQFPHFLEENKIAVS
Setting: 8-mer, flanks averaged, mean of replicates
`ACTAATCA` has an E-score of 0.234.
`CATTTCTA` has an E-score of 0.237.
`GCCCCCAC` has an E-score of -0.349.
`GCATCCGA` has an E-score of -0.184.
The E-score of `AGGCTGCC` is reported as -0.32.
With `GATCAAAC` the E-score was 0.044.
`ACCTTCCG` gave an E-score of -0.128.
For `AACCTCAG`, the E-score was -0.148.
The E-score of `AACAGAGC` is reported as -0.00219.
`CTTGATCC` gave an E-score of -0.0919.
With `TGCCACAA` the E-score was 0.115.
With `GATCTGGC` the E-score was -0.129.
With `ACATGGAT` the E-score was 0.208.
`AGGACTCA` has an E-score of -0.101.
`CTCACGTA` has an E-score of -0.171.
For `AGACTCTG`, the E-score was -0.0558.
The E-score of `CCTTTCTC` is reported as 0.0947.
For `GACTTGAC`, the E-score was -0.0582.
`AACAGCTC` gave an E-score of -0.084.
`ATCAGGCG` gave an E-score of -0.208.
The E-score of `AGTTACTC` is reported as 0.13.
The E-score of `ACCGAATC` is reported as -0.0737.
The E-score of `ACCTGAGC` is reported as -0.158.
With `GGCATGAA` the E-score was 0.0699.
`GGCGCCTA` gave an E-score of -0.119.

Set 3 — method: RNA Bind-n-Seq; molecule type: RNA; medium: in vitro; concentration: 365 nM; baseline: no-protein control; reading: higher = stronger binding
Target: RNA binding protein fox-1 homolog 2, RRM domain, GST-SBP tag (RBFOX2, Homo sapiens, UniProt O43251-10, residues 100-194)
Setting: natural RNA segment, single round, ends assumed
Target sequence (chain): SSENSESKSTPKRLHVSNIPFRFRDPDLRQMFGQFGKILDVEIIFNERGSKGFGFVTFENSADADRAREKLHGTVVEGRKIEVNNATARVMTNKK
`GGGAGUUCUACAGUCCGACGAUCAUGUACUGUUAAUUUUUUUUAAUUAAAGUAUAUUAAAGGUUAAAUAAAACAUGACUGUGUCAGACUAUUAAGACUUGAGAAAGGGUUAGUUUUUUUCUUAGGCCUCCCUUUGGAAUUCUCGGGUGCCAA`: “RBNS enrichment (R)” 0.396.
`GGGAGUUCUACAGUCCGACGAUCACAUAGGCUGAACAUUUUCCUAAAUUCUACCUGUGCAGACACUGAGGGGCUCUCUACCUUUGAAACUAUGAGAACGUCUUAAAUUAAUAUGAAUAUUUCUCUCCAUGUAUUGGAAUUCUCGGGUGCCAA`: “RBNS enrichment (R)” 0.498.
`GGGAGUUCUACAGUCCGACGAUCGGAGCCUGCCGAUCCUAGCUCAGAGAGGCUGCCUUCAUGGCCUGUUACUCCAGCUAACGCUUUGAUUCCAACACUAGCAUUUGUCACGUUAGGACGAACUGAAACGGUACUGGAAUUCUCGGGUGCCAA` — result for “RBNS enrichment (R)”: 0.249.
For `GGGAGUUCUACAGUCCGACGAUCAAGUGGAUUUAUCUAAAGUGGAACCAGCUGACAUUAUAUCUGUAUCGUAUGGAGAAUGAUGAAGGGCUCCACUGUUGUUAUAUGUCUUGUUUAUUUAAAACUUUUUUUAAUGGAAUUCUCGGGUGCCAA`, “RBNS enrichment (R)” read 1.03.
For `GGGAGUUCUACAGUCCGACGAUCACCAGGGCUAGAGUCAACAGUCCAGAACCCCUAUCCGUAUGAACAGGGGCCCGUUUCUGGUUGAAAUCAAGGUUAGGAUGCAACUGAGAAAAUAAAAGACUGCACUUUGGUGGAAUUCUCGGGUGCCAA`, “RBNS enrichment (R)” read 1.05.
`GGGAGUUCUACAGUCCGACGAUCCUUAUUGUAGUUAGAAAUUGUAACUUUGAUAUCGAAUCUCUUGCCUUCAACAAGCACACUGACAGAGAAAAAAAAAUAUGCUACUGUCUGUUGGUUCCAAUAUUCUCCCAUGGAAUUCUCGGGUGCCAA`: “RBNS enrichment (R)” 0.391.
`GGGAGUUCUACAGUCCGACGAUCGGAAUGAUGUGGUGAUUUAGAAUGCAGUAUUGGCCAAGUCCAAGUUGUCAACUUAAGCGUCUGUUUACCAAAGACCGGGAACAGGGGCCCAAACAUGUCCAGUCCUCUUCUGGAAUUCUCGGGUGCCAA`: “RBNS enrichment (R)” 0.496.
Under “RBNS enrichment (R)”, `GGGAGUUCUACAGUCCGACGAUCCCAUGGGCCUUCAGGAAUAUUUAUACAUGGCCCAGCCUGCACUGCCCGGGCGAGGGCAGAGGACACUGGGAGCAAGGCUUAUGCCCCUGCUGCCCGUCCUGUGCUGGGGGUGGAAUUCUCGGGUGCCAA` is recorded as 0.391.
`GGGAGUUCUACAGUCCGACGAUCUACAUUGCUACAGUUCACUGUAGCAACAGAUUUGGUGGUGAUGGGGGGAUAGAGGUAGAAGCAGAUAGAAGGUAAUUUUAAAGUUAAUUUAUUAUGAAUCAUUUUCCCCUUGGAAUUCUCGGGUGCCAA`: “RBNS enrichment (R)” 0.413.
`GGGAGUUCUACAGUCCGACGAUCAGGCCCAGAGUGGACACAGCUGUUAAUUUCCACUGGCUAUGCCACUUCAGAGUCUUUCAUGCCAGCGUUUGAGCUCCUCUGGGUAAAAUCUUCCCUUUGUUGACUGGCCUUGGAAUUCUCGGGUGCCAA`: “RBNS enrichment (R)” 0.35.
`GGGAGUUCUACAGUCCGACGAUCAUGUUUACUUUUUUUGUAUUGAUCACUUUUUUGCACUCCUUCUUUGUUUUCAAUAUUGUAUUCAGCCUAUUGUAGGAGGGGGAUGUGGCGUUUCAACUCAUAUAAUACAGUGGAAUUCUCGGGUGCCAA` — result for “RBNS enrichment (R)”: 0.855.
`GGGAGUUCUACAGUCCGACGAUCCAAAUAAUGUUAAUGUUAUUCAAUCAUUUUCUGAAUUGUUAACUCUUAUUCUUUGGUUUAAAUACUGAAACAUGAUUAAUUGCUAACUACAGCUUAGAAACCCAAUAUCAUGGAAUUCUCGGGUGCCAA`: “RBNS enrichment (R)” 0.309.

Set 4 — method: aptamer microarray, sandwich; molecule type: DNA with 2'F-ANA; medium: in vitro; concentration: 200 nM; added: Cy3 exosite-II aptamer, 400 nM; reading: higher = stronger binding; oligonucleotide: GGTTGGTGTGGTTGG
Target: Prothrombin, mature alpha-thrombin (F2, Homo sapiens, UniProt P00734)
Setting: whole 15-mer aptamer, many near background
`2'F-ANA at 2 3 5 6 7 8 10 11 12 14`: “mean fluorescence intensity” 60.9 a.u.
`2'F-ANA at 2 4 5 7 8 11 13`: “mean fluorescence intensity” 65 a.u.
`2'F-ANA at 1 4 9 13 14`: “mean fluorescence intensity” 150 a.u.
For `2'F-ANA at 4 6 8 10 12 13 14 15`, “mean fluorescence intensity” read 57.7 a.u.
`2'F-ANA at 2 4 6` — result for “mean fluorescence intensity”: 301 a.u.
`2'F-ANA at 1 3 4 9 11 12 13 15` — result for “mean fluorescence intensity”: 258 a.u.
For `2'F-ANA at 2 5 9 14`, “mean fluorescence intensity” read 43.6 a.u.
Under “mean fluorescence intensity”, `2'F-ANA at 4 6 7 8 9 11 12 14 15` is recorded as 91.4 a.u.
`2'F-ANA at 2 5 6 7 8 11 12 13 14 15` — result for “mean fluorescence intensity”: 51.2 a.u.
For `2'F-ANA at 1 3 6 7 8 10 12 14 15`, “mean fluorescence intensity” read 70.2 a.u.
`2'F-ANA at 3 4 6 7 8 9 13 14 15`: “mean fluorescence intensity” 212 a.u.
Under “mean fluorescence intensity”, `2'F-ANA at 1 4 6 7 8 9 10 11 13 14` is recorded as 48.5 a.u.
Under “mean fluorescence intensity”, `2'F-ANA at 5 6 9 10 11 13 14 15` is recorded as 46.9 a.u.
For `2'F-ANA at 2 7 8 9 10 12 15`, “mean fluorescence intensity” read 195 a.u.
`2'F-ANA at 2 7 9 10 11 12 13`: “mean fluorescence intensity” 162 a.u.
Under “mean fluorescence intensity”, `2'F-ANA at 2 9 10 13 15` is recorded as 104 a.u.
For `2'F-ANA at 5 6 8 9 11 13 14`, “mean fluorescence intensity” read 48.7 a.u.
`2'F-ANA at 1 2 3 5 6 9 11 12 13 14 15`: “mean fluorescence intensity” 51.6 a.u.
`2'F-ANA at 2 3 4 7 9 10 11 14 15` — result for “mean fluorescence intensity”: 169 a.u.
For `2'F-ANA at 1 3 4 6 8 9 14`, “mean fluorescence intensity” read 62.2 a.u.
`2'F-ANA at 1 3 5 9 13 14` — result for “mean fluorescence intensity”: 87.9 a.u.
For `2'F-ANA at 4 6 8 12`, “mean fluorescence intensity” read 596 a.u.
Under “mean fluorescence intensity”, `2'F-ANA at 1 4 5 10 13 14` is recorded as 45.9 a.u.
`2'F-ANA at 1 2 6 7 10 12 13 14`: “mean fluorescence intensity” 47.7 a.u.
For `2'F-ANA at 2 6 7 8 9 11 12 13 15`, “mean fluorescence intensity” read 444 a.u.

For quick reference, copied from above (set 4):
`2'F-ANA at 1 3 5 9 13 14` — result for “mean fluorescence intensity”: 87.9 a.u.
Under “mean fluorescence intensity”, `2'F-ANA at 1 4 5 10 13 14` is recorded as 45.9 a.u.
Under “mean fluorescence intensity”, `2'F-ANA at 4 6 7 8 9 11 12 14 15` is recorded as 91.4 a.u.
`2'F-ANA at 1 3 4 9 11 12 13 15` — result for “mean fluorescence intensity”: 258 a.u.
Under “mean fluorescence intensity”, `2'F-ANA at 5 6 9 10 11 13 14 15` is recorded as 46.9 a.u.
For `2'F-ANA at 4 6 8 12`, “mean fluorescence intensity” read 596 a.u.
For `2'F-ANA at 1 3 6 7 8 10 12 14 15`, “mean fluorescence intensity” read 70.2 a.u.
For `2'F-ANA at 2 5 9 14`, “mean fluorescence intensity” read 43.6 a.u.
